Experimental data pooled from the literature.
Lines come from different studies, so protocols differ. Values joined by “and” are separate records of one study, mostly repeats; a detail may differ.
Target: Serine/threonine-protein kinase D3 (PRKD3, Homo sapiens, UniProt O94806)

Under “activity vs control”, `O=C(Cc1ccc(OCc2ccccc2)cc1)NC1(C(=O)O)CCN(C(=O)c2ccc(-c3cccc(Cl)c3)cc2)CC1` is recorded as 121% (enzyme activity, inhibitor; 10 µM).
The remaining binding of `Nc1ncc2c(n1)-c1c([nH]c3ccc(C4=CCOCC4)cc13)CCC2` is reported as 63% (binding, competition with immobilised ligand; 1 µM).
For `CC(C)=CC1OC(C)(C)C2C=C3C(=O)C(Cl)=CC(O)C3C3C(O)C4OC4C(=O)C132` (centres unmarked), the remaining binding was 91% (cell-free assay, competition with immobilised ligand; 10 µM).
With `CCN1CCN(Cc2ccc(C(=O)Nc3ccc(C)c(NCc4cnc5[nH]ccc5c4OC)c3)cc2C(F)(F)F)CC1` the remaining binding was 72% (binding, competition with immobilised ligand; 1 µM).
The remaining binding of `Cc1cnc2nc1Nc1cccc(c1)COC/C=C/COCc1cc(ccc1OCCN1CCOCC1)N2` is reported as 85% (binding; 0.1 µM).
`CNC(=O)C1CCN(c2cc(C)c(F)cc2NC(=O)c2ccc(-c3cc(O)ccc3C)c(C)c2)CC1` has a remaining binding of 92% (binding, competition with immobilised ligand; 1 µM).
`COc1cc(Nc2nc(C)cc(-c3cnn4nc(OC)ccc34)n2)cc(C(F)(F)F)c1` has a remaining activity of 100% (inhibitor; 1 µM; baseline: control).
For `CNC(=O)C[C@H](Cc1ccc(C#N)cc1)NC(=O)c1cc(-c2ccc(CN[C@H](C)c3ccc(C)cc3)o2)ccc1Cl`, “activity vs control” read 104% (enzyme activity, inhibitor; 1 µM).
`C=CC(=O)N1CCc2ccc(-n3c(=O)ccc4cnc5ccc(-c6cnn(C)c6)cc5c43)cc21` has a remaining binding of 100% (KINOMEscan; 1 µM; baseline: DMSO control).
The inhibition of `C=CC(=O)N1Cc2nc(-c3cc(-c4cc(Cl)cnc4Cl)c(F)cc3F)n(-c3ccncn3)c2C1` is reported as 16% (cell-free assay, inhibitor; 1 µM).
`N[C@H]1CC[C@H](Nc2nccc(-c3cccnc3Oc3ccc(NC(=O)NC4CC4)c4ccccc34)n2)CC1` — result for “log2 LFQ intensity”: 23.1 and 22.8 and 22.3 and 21.5 (kinobead competition pulldown; HEK293/HCT116 lysate mixture; 10 µM, 1 h, 4 °C; lower = stronger competition).
For `Cc1cccc(O[C@H]2CCC[C@@H](C(C)CNCc3ccncc3)C2)c1` (relative stereo), the inhibition was -4% (enzyme activity, inhibitor; 10 µM).
The inhibition of `NC(=O)[C@@H](O)C[C@H]1CCc2sc3ncnc(O[C@H]4CC[C@H](N5CCOCC5)CC4)c3c21` is reported as 28% (enzyme activity, inhibitor; 10 µM).
For `C=CC(=O)Nc1cccc(-c2cnc3[nH]cc(C(=O)NC(C)(C)C)c3n2)c1`, the inhibition was 11% (enzyme activity, inhibitor; 0.1 µM).
